Experimental data from different studies.
A part holds a random share of what one study measured.

Series 1
Target: Interferon regulatory factor 5, full length, phosphomimetic (IRF5, Homo sapiens, UniProt Q13568-2, residues 1-514, S451D/S453D/S456D/S462D)
Method: protein-binding microarray
Molecule type: double-stranded DNA, one strand shown
Sample: in vitro
Concentration: 940 nM top
Notes: 60-bp whole probe
With: salmon DNA 0.4 mg/ml
Baseline: random background probes
Direction: higher = stronger binding
All sequences stand within: GCCTAGCAC … GTCTTGATTCGCTTGACGCTGCTG
| Strand | fitted relative affinity |
| --- | --- |
| GTTTTTTTTTAATTGAAATCGTGCTAG | -0.0696 z-score |
| CGCTCTGTGCTCTTTGGGCTGTGCTAG | -0.473 z-score |
| GACGGCATCGACTTTCGGGACGTGCTA | 0.384 z-score |
| TCAAGTTTCACTGCTGCACTGTGCTAG | 5.48 z-score |
| TTATGGTGTGGAGAAGGCACGTGCTAG | -0.568 z-score |

Series 2
Target: RNA binding protein fox-1 homolog 2, RRM domain, GST-SBP tag (RBFOX2, Homo sapiens, UniProt O43251-10, residues 100-194)
Method: RNA Bind-n-Seq
Molecule type: RNA
Sample: in vitro
Concentration: 365 nM
Notes: natural RNA segment, single round, ends assumed
Baseline: no-protein control
Direction: higher = stronger binding
All sequences stand within: GGGAGUUCUACAGUCCGACGAUC … UGGAAUUCUCGGGUGCCAA
Target sequence (chain): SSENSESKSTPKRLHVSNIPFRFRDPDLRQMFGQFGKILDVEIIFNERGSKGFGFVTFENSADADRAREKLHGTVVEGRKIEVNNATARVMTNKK
| Strand | RBNS enrichment (R) |
| --- | --- |
| AUAUUUUUGUCUUGUUCUUCCAAUUGGUAUAUACAACUUUCAGAGCCUCUUGUAUUUGGAAGGCUGGAAGGGCCCAGACUUUGGAAUAGUGUCUUGGUUUCACUGUUUUU | 0.593 |
| GAUUCGAAGUUUGUAUUGUAUUCAUAGUUAAAGGGAAUCGGGUACUUUGCUUGUUGAAUAAUGCACUUUAAAACAAGGAACCGUAUCAGGCCAGCAUGGUGGCUCAUGCC | 5.78 |
| UUUAAAUUGCCUCAGUGAUACAGUAUAAAGAUAAACAGAAAUGCUGAGAUAAGCUUAGCACUUGAGUUGUACAACAGAACACUUGUACAAAAUAGAUUUUAAGGCUAACU | 0.305 |
| GCUGACAUGGUCUUUCAAGAUUCUUAGUAGGUCUCUCAGAAGCCAGUUCAUCUGGCCUUAACUGAAUGGAUUCCCUAUUUAACCAGAAACUGUUGUCCUCCUGCUAAACA | 0.253 |
| GUGUGAUCCUACUUGAAAACAACCCUUGAGGAGGGCGCCUCGGUCACUGUGAGCAUGUCAGAGGCUUUCUGUGUAGAUGUCCUGCCAUGGGUGAUGUGUGAUCUACCAGU | 2.83 |
| AAAGUCCCCCACUGGACUGCUUCCUCCUUAGCCCCACUGGUAUAAAUACAUCUCUCUCCAAUUUGGCUUCAAUAUGGUCUGUCAUUGUUGGGCAAGAAGGGGAGGUACAA | 0.294 |

Series 3
Target: Ras GTPase-activating protein-binding protein 1, full length (G3BP1, Homo sapiens, UniProt Q13283)
Sequence of UniProt Q13283 (whole entry, looked up): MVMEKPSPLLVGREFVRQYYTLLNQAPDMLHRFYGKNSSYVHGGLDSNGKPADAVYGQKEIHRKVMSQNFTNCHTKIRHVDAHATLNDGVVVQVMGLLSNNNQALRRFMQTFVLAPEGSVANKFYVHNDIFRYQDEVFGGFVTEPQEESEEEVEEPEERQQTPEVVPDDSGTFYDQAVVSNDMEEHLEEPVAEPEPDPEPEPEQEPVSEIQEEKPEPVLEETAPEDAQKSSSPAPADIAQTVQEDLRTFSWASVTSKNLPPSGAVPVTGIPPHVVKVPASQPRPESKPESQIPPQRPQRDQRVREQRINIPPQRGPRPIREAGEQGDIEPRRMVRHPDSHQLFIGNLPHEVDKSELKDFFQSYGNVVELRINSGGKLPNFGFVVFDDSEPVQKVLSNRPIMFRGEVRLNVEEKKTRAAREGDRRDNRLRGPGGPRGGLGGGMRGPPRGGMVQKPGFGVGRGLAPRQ
Method: RNA Bind-n-Seq
Molecule type: RNA
Sample: in vitro
Concentration: 200 nM
Notes: whole 134-nt RNA, ends assumed
With: 150 mM KCl
Baseline: input library
Direction: higher = stronger binding
All sequences stand within: GGGAGUUCUACAGUCCGACGAUC … UGGAAUUCUCGGGUGUCAAGG
| Strand | log2 enrichment |
| --- | --- |
| CCUGUGCUACACAUCGUAUGUACCGAAUCGGCCCCCCCGGGCCCCCCCGGGGCCCCCCCGGAAAGUAUUAUGUUACGCCGUUCGGAUCUG | -0.387 |
| AGUCCUGUGCUACACAUCGUAUGUACCGAAUCGGGUUUUGGGGUUUUGGGGUUUUGGAAAGUAUUAUGUUACGCCGUUCGGAUCUGCACU | -0.379 |
| AGUCCUGUGCUACACAUCGUAUGUACCGAAUCGGGGAAAAAGGGGAAAGGGGAGGGGAAAGUAUUAUGUUACGCCGUUCGGAUCUGCACU | 0.0361 |
| AAGUCCUGUGCUACACAUCGUAUGUACCGAAUCGGUUUUGGUUUUGGGGUUUUGGGGAAAGUAUUAUGUUACGCCGUUCGGAUCUGCACU | -0.732 |
| GUCCUGUGCUACACAUCGUAUGUACCGAAUCGGCCCCCCGGCCCCCCGGCCCCCCGGGAAAGUAUUAUGUUACGCCGUUCGGAUCUGCAC | 0.164 |

Mixed results
| Substance | target | test | test system | setting | how to read | quantity | value |
| --- | --- | --- | --- | --- | --- | --- | --- |
| PhoQ, residues 284 288 289 292 302 303 SSYNSA | PhoP, residues 12 14 15 18 19 LYFRQ (Escherichia coli, UniProt P23836) | Sort-seq, item: YFP reporter | E. coli | PhoQ-PhoP variant library, with: 10 µM Mg2+ | baseline: high Mg2+ state, higher = stronger signaling | fold induction | 15 |

For quick reference, copied from above (series 2):
| Strand | RBNS enrichment (R) |
| --- | --- |
| AUAUUUUUGUCUUGUUCUUCCAAUUGGUAUAUACAACUUUCAGAGCCUCUUGUAUUUGGAAGGCUGGAAGGGCCCAGACUUUGGAAUAGUGUCUUGGUUUCACUGUUUUU | 0.593 |
| GAUUCGAAGUUUGUAUUGUAUUCAUAGUUAAAGGGAAUCGGGUACUUUGCUUGUUGAAUAAUGCACUUUAAAACAAGGAACCGUAUCAGGCCAGCAUGGUGGCUCAUGCC | 5.78 |
| UUUAAAUUGCCUCAGUGAUACAGUAUAAAGAUAAACAGAAAUGCUGAGAUAAGCUUAGCACUUGAGUUGUACAACAGAACACUUGUACAAAAUAGAUUUUAAGGCUAACU | 0.305 |
